Published values from different studies.
Compare with care: the assays were run in different laboratories. Several values in a cell are separate wells, animals, samples, runs or records. ≈ marks a conversion by molar mass, not a printed value.
Chain of UniProt Q8NG66 (whole entry, looked up): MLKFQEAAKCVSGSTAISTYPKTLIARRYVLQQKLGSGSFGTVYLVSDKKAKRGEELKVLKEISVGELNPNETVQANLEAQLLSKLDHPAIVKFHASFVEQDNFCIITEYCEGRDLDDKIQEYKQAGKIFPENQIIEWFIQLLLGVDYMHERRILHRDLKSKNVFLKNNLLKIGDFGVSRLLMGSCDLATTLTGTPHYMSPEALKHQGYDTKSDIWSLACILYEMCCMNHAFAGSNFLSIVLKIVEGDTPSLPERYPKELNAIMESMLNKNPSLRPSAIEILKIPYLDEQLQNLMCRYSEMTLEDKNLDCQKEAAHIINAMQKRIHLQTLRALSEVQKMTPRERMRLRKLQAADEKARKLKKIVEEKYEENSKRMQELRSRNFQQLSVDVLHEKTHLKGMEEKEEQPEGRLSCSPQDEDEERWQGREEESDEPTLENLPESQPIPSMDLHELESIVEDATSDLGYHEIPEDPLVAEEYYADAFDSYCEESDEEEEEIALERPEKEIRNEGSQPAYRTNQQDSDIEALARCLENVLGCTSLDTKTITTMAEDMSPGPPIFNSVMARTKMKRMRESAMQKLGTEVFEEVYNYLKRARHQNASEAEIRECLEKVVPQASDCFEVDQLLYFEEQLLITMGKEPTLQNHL
Chain of UniProt Q05397 (whole entry, looked up): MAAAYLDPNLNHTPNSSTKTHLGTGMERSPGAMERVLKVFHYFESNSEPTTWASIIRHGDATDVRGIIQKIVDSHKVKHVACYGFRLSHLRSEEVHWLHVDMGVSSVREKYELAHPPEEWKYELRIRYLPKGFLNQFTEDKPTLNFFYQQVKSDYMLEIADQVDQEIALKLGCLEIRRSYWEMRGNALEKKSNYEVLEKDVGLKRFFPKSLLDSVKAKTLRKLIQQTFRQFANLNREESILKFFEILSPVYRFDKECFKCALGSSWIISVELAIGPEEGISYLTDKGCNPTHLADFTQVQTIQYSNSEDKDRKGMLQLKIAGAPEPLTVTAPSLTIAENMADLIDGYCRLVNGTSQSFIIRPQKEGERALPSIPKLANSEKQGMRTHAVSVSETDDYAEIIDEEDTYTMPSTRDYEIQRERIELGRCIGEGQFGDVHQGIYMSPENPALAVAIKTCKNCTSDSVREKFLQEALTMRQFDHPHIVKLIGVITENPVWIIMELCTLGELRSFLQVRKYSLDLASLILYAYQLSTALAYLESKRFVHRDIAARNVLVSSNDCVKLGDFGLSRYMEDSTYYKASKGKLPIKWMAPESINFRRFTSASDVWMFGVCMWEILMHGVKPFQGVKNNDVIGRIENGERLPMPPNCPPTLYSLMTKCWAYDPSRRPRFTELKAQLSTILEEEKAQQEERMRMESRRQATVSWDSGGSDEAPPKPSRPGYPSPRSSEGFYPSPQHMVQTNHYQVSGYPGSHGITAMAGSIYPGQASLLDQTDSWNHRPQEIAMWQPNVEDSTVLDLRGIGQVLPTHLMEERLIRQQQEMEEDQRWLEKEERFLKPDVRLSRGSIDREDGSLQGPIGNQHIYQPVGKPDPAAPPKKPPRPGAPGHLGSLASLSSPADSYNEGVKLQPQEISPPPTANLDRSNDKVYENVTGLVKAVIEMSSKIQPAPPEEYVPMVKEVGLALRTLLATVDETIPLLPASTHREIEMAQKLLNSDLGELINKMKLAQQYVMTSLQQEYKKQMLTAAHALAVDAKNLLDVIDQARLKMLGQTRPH
Chain of UniProt Q96L34 (whole entry, looked up): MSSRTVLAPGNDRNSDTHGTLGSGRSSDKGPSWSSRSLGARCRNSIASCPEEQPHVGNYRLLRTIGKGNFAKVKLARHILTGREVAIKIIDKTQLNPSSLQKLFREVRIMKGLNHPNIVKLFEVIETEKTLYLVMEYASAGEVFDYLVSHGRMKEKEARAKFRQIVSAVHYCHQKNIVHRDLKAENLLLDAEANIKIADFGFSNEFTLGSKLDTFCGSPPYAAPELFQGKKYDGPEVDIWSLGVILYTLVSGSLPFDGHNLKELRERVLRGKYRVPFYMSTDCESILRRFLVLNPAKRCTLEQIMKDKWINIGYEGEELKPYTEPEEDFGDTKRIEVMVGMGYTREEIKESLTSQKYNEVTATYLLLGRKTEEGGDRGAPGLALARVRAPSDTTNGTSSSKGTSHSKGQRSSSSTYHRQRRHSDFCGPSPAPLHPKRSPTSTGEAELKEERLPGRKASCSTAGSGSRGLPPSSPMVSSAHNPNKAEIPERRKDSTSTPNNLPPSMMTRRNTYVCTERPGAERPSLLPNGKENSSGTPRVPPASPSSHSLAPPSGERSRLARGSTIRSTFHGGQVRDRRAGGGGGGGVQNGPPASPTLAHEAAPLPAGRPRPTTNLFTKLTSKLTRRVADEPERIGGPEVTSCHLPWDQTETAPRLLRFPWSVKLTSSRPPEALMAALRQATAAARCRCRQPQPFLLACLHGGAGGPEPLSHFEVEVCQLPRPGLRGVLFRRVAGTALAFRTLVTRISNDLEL
Chain of UniProt Q9BX84 (whole entry, looked up): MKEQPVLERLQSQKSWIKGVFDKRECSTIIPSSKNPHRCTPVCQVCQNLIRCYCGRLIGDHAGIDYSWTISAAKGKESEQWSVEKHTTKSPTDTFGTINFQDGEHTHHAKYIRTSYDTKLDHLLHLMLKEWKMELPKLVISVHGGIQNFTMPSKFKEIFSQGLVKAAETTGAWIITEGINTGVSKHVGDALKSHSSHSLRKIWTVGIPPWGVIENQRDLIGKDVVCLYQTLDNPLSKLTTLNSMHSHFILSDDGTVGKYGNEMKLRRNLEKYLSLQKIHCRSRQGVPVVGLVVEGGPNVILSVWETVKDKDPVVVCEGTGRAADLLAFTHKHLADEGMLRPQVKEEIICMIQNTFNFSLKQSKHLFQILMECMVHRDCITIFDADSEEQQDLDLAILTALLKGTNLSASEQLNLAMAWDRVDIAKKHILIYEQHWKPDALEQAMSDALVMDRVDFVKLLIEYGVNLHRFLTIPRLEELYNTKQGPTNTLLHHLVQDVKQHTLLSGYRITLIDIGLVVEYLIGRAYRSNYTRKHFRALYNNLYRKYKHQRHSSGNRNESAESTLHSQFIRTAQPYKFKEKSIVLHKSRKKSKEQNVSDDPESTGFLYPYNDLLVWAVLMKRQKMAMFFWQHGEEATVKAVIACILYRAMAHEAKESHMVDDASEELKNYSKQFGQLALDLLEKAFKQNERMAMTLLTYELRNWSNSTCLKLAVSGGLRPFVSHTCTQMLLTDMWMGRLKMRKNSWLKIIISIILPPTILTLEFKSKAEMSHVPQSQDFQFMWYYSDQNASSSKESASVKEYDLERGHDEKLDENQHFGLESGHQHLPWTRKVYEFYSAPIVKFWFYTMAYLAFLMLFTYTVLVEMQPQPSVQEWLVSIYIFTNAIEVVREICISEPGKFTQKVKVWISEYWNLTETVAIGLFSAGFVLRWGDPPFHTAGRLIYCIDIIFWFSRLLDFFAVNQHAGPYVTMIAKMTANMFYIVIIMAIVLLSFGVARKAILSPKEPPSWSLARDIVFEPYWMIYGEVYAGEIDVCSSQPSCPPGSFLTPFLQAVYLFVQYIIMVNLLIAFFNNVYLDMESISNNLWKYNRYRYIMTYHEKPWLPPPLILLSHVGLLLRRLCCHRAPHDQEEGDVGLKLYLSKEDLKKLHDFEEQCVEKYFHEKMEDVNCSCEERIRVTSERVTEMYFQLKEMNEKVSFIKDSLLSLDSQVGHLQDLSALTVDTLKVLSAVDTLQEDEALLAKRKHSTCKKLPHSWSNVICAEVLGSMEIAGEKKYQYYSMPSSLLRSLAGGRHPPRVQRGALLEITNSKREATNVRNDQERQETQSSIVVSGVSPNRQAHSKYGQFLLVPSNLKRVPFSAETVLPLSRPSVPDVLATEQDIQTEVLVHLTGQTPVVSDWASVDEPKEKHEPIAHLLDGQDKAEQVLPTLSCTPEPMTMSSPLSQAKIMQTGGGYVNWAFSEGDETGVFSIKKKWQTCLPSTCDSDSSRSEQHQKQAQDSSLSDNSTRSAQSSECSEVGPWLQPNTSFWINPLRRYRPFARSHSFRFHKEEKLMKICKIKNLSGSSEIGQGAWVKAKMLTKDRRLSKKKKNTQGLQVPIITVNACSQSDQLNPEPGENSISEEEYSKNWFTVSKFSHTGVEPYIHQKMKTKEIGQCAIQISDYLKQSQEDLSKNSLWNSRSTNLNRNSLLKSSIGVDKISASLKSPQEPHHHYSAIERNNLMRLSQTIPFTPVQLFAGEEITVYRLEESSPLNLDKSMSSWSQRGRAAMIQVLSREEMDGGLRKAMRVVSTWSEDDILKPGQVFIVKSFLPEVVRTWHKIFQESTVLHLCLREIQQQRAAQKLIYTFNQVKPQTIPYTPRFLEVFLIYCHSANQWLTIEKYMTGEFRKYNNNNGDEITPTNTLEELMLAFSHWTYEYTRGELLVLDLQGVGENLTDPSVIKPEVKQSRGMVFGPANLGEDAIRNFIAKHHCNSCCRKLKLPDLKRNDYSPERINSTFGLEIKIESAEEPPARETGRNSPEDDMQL
Chain of UniProt Q8WTQ7 (whole entry, looked up): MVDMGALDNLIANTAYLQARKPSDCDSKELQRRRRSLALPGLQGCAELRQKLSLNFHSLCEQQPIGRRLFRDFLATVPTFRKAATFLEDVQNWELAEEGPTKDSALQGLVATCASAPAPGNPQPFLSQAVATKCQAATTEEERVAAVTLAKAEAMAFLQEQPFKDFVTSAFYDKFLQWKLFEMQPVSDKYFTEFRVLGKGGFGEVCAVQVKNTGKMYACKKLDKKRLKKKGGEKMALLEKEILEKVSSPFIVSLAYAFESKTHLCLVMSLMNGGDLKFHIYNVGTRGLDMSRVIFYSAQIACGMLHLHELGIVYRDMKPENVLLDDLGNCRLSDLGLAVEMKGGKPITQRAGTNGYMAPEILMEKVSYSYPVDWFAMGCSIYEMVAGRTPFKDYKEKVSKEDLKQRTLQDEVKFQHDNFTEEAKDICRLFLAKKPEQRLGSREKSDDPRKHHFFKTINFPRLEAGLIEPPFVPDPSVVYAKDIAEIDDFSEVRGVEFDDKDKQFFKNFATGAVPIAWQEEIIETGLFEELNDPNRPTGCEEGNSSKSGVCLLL

SMILES	tested on	assay	system	conditions	measurement	result
N#Cc1cccnc1SCC(=O)c1ccc(F)cc1	Trypanosoma brucei	parasite growth, resazurin			EC50	> 64 µM
CC(C)[C@@H]1NC(=O)[C@@H](C)NC(=O)[C@H]([C@@H](C)O)NC(=O)[C@@H](CCCN)NC(=O)[C@H](Cc2ccccc2)NC(=O)[C@@H](Cc2ccccc2)NC1=O	Balamuthia mandrillaris	parasite growth, ATP luminescence		72 h	IC50	> 20 µM
CN(c1ccc(F)cc1)c1c(-c2ccccn2)nc2ccccn12	Leishmania infantum	parasite growth		intracellular, amastigote	IC50	1.49 µM and 0.57 µM
COc1cccc(C(=O)COc2nc(C)cc(C)c2C#N)c1	Trypanosoma brucei	parasite growth, resazurin			EC50	45 µM
C=C/C=C(\C)CC[C@H]1C[C@@H](O)CC(=O)O1	Salmonella enterica	microbial growth, broth dilution	ATCC14028 TYPHIMURIUM		MIC	128 µg/mL (≈ 609 µM)
Cc1cc(C)c(C#N)c(NCC(O)c2ccc(F)cc2)n1 (stereo not drawn)	Leishmania infantum	parasite growth	mouse Macrophage	intracellular, amastigote	EC50	> 64 µM
CN(Cc1ccc(C(C)(C)C)cc1)Cc1cccc2ccccc12	Trichophyton mentagrophytes	microbial growth, disc diffusion	ATCC18748	0.064 µg/mL, 72 h	inhibition zone	≥ 55 mm
COC(=O)[C@H](Cc1c[nH]cn1)NC(=O)N[C@]12CCC(C)(C)C[C@H]1C1=CC[C@@H]3[C@@]4(C)CC[C@@H]5OC(C)(C)OC[C@@]5(C)[C@@H]4CC[C@@]3(C)[C@]1(C)CC2	Leishmania mexicana	parasite growth, resazurin		50 µM, amastigote	inhibition	98%
Cc1cc(C)c(C#N)c(SC2COc3ccccc3C2=O)n1 (stereo not drawn)	Leishmania infantum	parasite growth	mouse Macrophage	intracellular, amastigote	EC50	37.3 µM
COc1ccc2nc(-c3ccccn3)c(N(C)c3ccc(F)cc3)n2c1	Leishmania infantum	parasite growth		intracellular, amastigote	IC50	0.59 µM and 1.29 µM
CCOP(=O)(OCC)OC[C@@]1(C)[C@@H]2CC[C@]3(C)[C@H](CC=C4[C@@H]5CC(C)(C)CC[C@]5(NC(=O)N5CCOCC5)CC[C@]43C)[C@@]2(C)CC[C@@H]1O	Leishmania mexicana	parasite growth, resazurin		50 µM, amastigote	inhibition	97.9%
Cc1cc([C@@H](C)Nc2ccccc2C(=O)O)c2nc(N3CCC(F)(F)CC3)c(C#N)c(=O)n2c1	PTK2 (Homo sapiens, UniProt Q05397)	binding, competition with immobilised ligand		1 µM	remaining binding	92%
CC(=O)Oc1ccccc1C(=O)CSc1nc(C)cc(C)c1C#N	Leishmania infantum	parasite growth	mouse Macrophage	intracellular, amastigote	EC50	> 64 µM
COc1cc(-c2cncc3c2CN(C)Cc2cc(N4CCNCC4)ccc2-3)cc(OC)c1OC	MARK4 (Homo sapiens, UniProt Q96L34)	enzyme activity, inhibitor		1 µM	remaining activity	105%
Nc1ncnc2occ(-c3ccc(NC(=O)Nc4cc(C(F)(F)F)cc(C(F)(F)F)c4)cc3)c12	Trypanosoma brucei	parasite growth			EC50	2 µM
COc1ccc(C(=O)CSc2[nH]c(=O)cc(C(F)(F)F)c2C#N)cc1	Leishmania infantum	parasite growth	mouse Macrophage	intracellular, amastigote	EC50	25.7 µM
COc1ccc2ncn(-c3cc(O[C@H](C)c4ccccc4Cl)c(C(N)=O)s3)c2c1	Trypanosoma brucei	parasite growth			EC50	0.398 µM
Fc1ccc(Nc2c(-c3ccccn3)nc3cccc(F)n23)cc1	Leishmania infantum	parasite growth		intracellular, amastigote	IC50	8.64 µM
CC(C)[C@@H]1NC(=O)[C@@H](CCCNC(=N)N)NC(=O)[C@H]([C@@H](C)O)NC(=O)[C@@H](CCCN)NC(=O)[C@H](Cc2ccccc2)NC(=O)[C@@H](Cc2ccc(O)cc2)NC1=O	Balamuthia mandrillaris	parasite growth, ATP luminescence			IC90	> 20 µM
CC1(C)CC[C@]2(C(=O)O)CC[C@]3(C)C(=CC[C@@H]4[C@@]5(C)CC[C@@H]6O[C@H](C[C@H]7O[C@H](CO)[C@H](O)[C@H](O)[C@H]7O)OC[C@@]6(C)[C@@H]5CC[C@]43C)[C@@H]2C1	Leishmania mexicana	parasite growth, resazurin		50 µM, amastigote	inhibition	98.1%
COc1ccc(-c2cc(=O)c3c(O)cc(O[C@@H]4O[C@H](CO)[C@@H](O)[C@H](O)[C@H]4O)cc3o2)cc1O	Helicobacter pylori	microbial growth, broth dilution		1.95 µg/mL	inhibition	100%
N#Cc1cccc(Nc2nccc(-c3cnn4ncccc34)n2)c1	Trypanosoma brucei	parasite growth			EC50	0.00794 µM
CC(=O)OC[C@@]1(C)[C@@H]2CC[C@]3(C)[C@H](CC=C4[C@@H]5CC(C)(C)CC[C@]5(NC(=O)N5CCCC5)CC[C@]43C)[C@@]2(C)CC[C@@H]1O	Leishmania mexicana	parasite growth, resazurin		50 µM, amastigote	inhibition	97.4%
CN(c1ccc(NC(=O)Nc2ccc(OC(F)(F)F)cc2)cc1)c1ccnc(Nc2cccc(S(N)(=O)=O)c2)n1	Trypanosoma brucei	parasite growth			EC50	0.251 µM
C=C[C@@]1(C)C=C2CC[C@@H]3[C@](C)(CCC[C@@]3(C)C(=O)O)[C@H]2CC1	Helicobacter pylori	microbial growth, broth dilution		7.81 µg/mL	inhibition	71%
O=C1O[C@H]2[C@@H]3OC(=O)c4cc(O)c(O)c(O)c4-c4c(O)c(O)c5oc(=O)c6c(c(O)c(O)c7oc(=O)c4c5c76)-c4c(cc(O)c(O)c4O)C(=O)OC[C@H]3OC(O)[C@@H]2OC(=O)c2cc(O)c(O)c(O)c2-c2c1cc(O)c(O)c2O (mixture of isomers)	Streptococcus mutans	microbial growth, disc diffusion		500 µg/disc	inhibition zone	18.5 mm
C=CC(=O)N1CCC(COCC(=O)N2CCN(c3nc(-c4cnc(N)nc4C(F)F)nc(N4CCOC[C@@H]4C)n3)CC2)CC1	GRK7 (Homo sapiens, UniProt Q8WTQ7)	binding, competition with immobilised ligand		1 µM	remaining binding	100%

SMILES	tested on	assay	system	conditions	measurement	result
COC(=O)c1ccc(O)cc1	Helicobacter pylori	microbial growth, broth dilution		0.24 µg/mL	inhibition	19.9%
CCCCC(=O)Nc1ccc(-c2ccc3ncn(CCC)c(=O)c3c2)cn1	TRPM6 (Homo sapiens, UniProt Q9BX84)	binding, competition with immobilised ligand		0.5 µM	remaining binding	100%
CNc1ncc2c(/C=C/C(=O)N3CCC(OC)CC3)nn(Cc3cccc(C(F)(F)F)c3)c2n1	NEK11 (Homo sapiens, UniProt Q8NG66)	enzyme activity, inhibitor, radiometric		1 µM	remaining activity	100%
Fc1ccc(Nc2c(-c3ncccc3F)nc3ccccn23)cc1	Leishmania infantum	parasite growth		intracellular, amastigote	IC50	12.7 µM and 34.6 µM
Cc1[nH]c(C(=O)Nc2ccc(C(=O)NCC(=O)O)cc2N2CCNCC2)c(Cl)c1Cl.Cl	Acinetobacter baumannii	microbial growth, broth dilution	ATCC19606		MIC	> 32 µg/mL
CC(C)[C@@H]1NC(=O)[C@@H](CCCNC(=N)N)NC(=O)[C@H]([C@@H](C)O)NC(=O)[C@@H](C)NC(=O)[C@H](Cc2ccccc2)NC(=O)[C@@H](Cc2ccccc2)NC1=O	Balamuthia mandrillaris	parasite growth, ATP luminescence			IC90	12.5 µM
Cc1ccn2cc(-c3ccccn3)nc2c1	Leishmania infantum	parasite growth		intracellular, amastigote	EC50	20 µM
C#CCOC(=O)[C@]12CCC(C)(C)C[C@H]1C1=CC[C@@H]3[C@@]4(C)CC[C@H](O)[C@@](C)(CO)[C@@H]4CC[C@@]3(C)[C@]1(C)CC2	Leishmania mexicana	parasite growth, resazurin		50 µM, amastigote	inhibition	98.7%
C[C@@H]1NC(=O)[C@@H](CCCNC(=N)N)NC(=O)[C@H]([C@@H](C)O)NC(=O)[C@@H](CCCN)NC(=O)[C@H](Cc2ccccc2)NC(=O)[C@@H](Cc2ccccc2)NC1=O	Balamuthia mandrillaris	parasite growth, ATP luminescence			IC90	> 20 µM
CCN(c1ccc(F)cc1)c1c(-c2ccccn2)nc2ccccn12	Leishmania infantum	parasite growth		intracellular, amastigote	IC50	1.29 µM
CC1(C)CC[C@]2(NC(=O)N3CCC[C@H]3C(=O)NCCCn3ccnc3)CC[C@]3(C)C(=CC[C@@H]4[C@@]5(C)CC[C@@H]6OC(C)(C)OC[C@@]6(C)[C@@H]5CC[C@]43C)[C@@H]2C1	Leishmania mexicana	parasite growth, resazurin		50 µM, amastigote	inhibition	96%
NS(=O)(=O)c1ccc(N/C=C2\C(=O)Nc3ccc4ncsc4c32)cc1	Trypanosoma brucei	parasite growth			EC50	0.316 µM
CCS(=O)(=O)Oc1ccc(C=NNC(=O)CSc2nc3ccc(Cl)cc3c(=O)n2-c2ccccc2)cc1	Salmonella enterica	microbial growth, well diffusion	TYPHIMURIUM	20 µg/mL	inhibition zone	3 mm
CC(C)[C@@H]1NC(=O)[C@@H](CCCNC(=N)N)NC(=O)[C@H]([C@@H](C)O)NC(=O)[C@@H](CCCN)NC(=O)[C@H](C)NC(=O)[C@@H](Cc2ccccc2)NC1=O	Balamuthia mandrillaris	parasite growth, ATP luminescence			IC90	> 20 µM
C=CCOC(=O)[C@]12CCC(C)(C)C[C@H]1C1=CC[C@@H]3[C@@]4(C)CC[C@H](O)[C@@](C)(CO)[C@@H]4CC[C@@]3(C)[C@]1(C)CC2	Leishmania mexicana	parasite growth, resazurin		50 µM, amastigote	inhibition	99.9%
Cc1[nH]c(C(=O)Nc2ccc(C(=O)NCC(=O)O)cc2N2CC[C@H](N)C2)c(Cl)c1Cl.Cl	Klebsiella aerogenes	microbial growth, broth dilution	ATCC13408		MIC	> 32 µg/mL
CN[C@H](CC(C)C)C(=O)N[C@H]1C(=O)N[C@@H](CC(N)=O)C(=O)N[C@H]2C(=O)N[C@H]3C(=O)N[C@H](C(=O)N[C@H](C(=O)O)c4cc(O)cc(O)c4-c4cc3ccc4O)[C@H](O)c3ccc(c(Cl)c3)Oc3cc2cc(c3O[C@@H]2O[C@H](CO)[C@@H](O)[C@H](O)[C@H]2O[C@H]2C[C@](C)(N)[C@H](O)[C@H](C)O2)Oc2ccc(cc2Cl)[C@H]1O	Staphylococcus epidermidis	microbial growth		clinical isolate	MIC90	2 µg/mL (≈ 1.38 µM)
O=C(O)c1ccc(O)cc1	Helicobacter pylori	microbial growth, broth dilution		1.95 µg/mL	inhibition	100%
CN(Cc1ccc(C2(C(F)(F)F)CC2)cc1)Cc1cccc2ccccc12	Trichophyton mentagrophytes	microbial growth, disc diffusion	ATCC18748	0.008 µg/mL, 72 h	inhibition zone	28.2 mm
O=C(Nc1n[nH]c2nc(-c3ccc(O)cc3)c(Br)cc12)C1CC1	Trypanosoma brucei	parasite growth			EC50	0.398 µM
COc1ccccc1C(=O)CSc1nc(C)cc(C)c1C#N	Leishmania infantum	parasite growth	mouse Macrophage	intracellular, amastigote	EC50	20.4 µM
COc1cc([C@H]2OC[C@H]3[C@@H]2CO[C@@H]3c2cc(OC)c(O)c(OC)c2)cc(OC)c1O	Helicobacter pylori	microbial growth, broth dilution		15.63 µg/mL	inhibition	100%
COc1cc2c(cc1Nc1nc(Nc3ccsc3C(N)=O)c3cc[nH]c3n1)N(C(=O)CN(C)C)CCC2(C)C	Trypanosoma brucei	parasite growth			EC50	0.251 µM
O=c1cc(-c2ccc(O)c(O)c2)oc2cc(O)cc(O)c12	Helicobacter pylori	microbial growth, broth dilution		62.5 µg/mL	inhibition	100%
C[C@@H]1O[C@@H](C[C@@H]2OC[C@@]3(C)[C@@H]4CC[C@]5(C)[C@H](CC=C6[C@@H]7CC(C)(C)CC[C@]7(C(=O)O)CC[C@]65C)[C@@]4(C)CC[C@@H]3O2)[C@H](O)[C@H](O)[C@H]1O	Leishmania mexicana	parasite growth, resazurin		50 µM, amastigote	inhibition	97.6%
O=c1cc(-c2ccc(O)cc2)oc2cc(O)cc(O)c12	Helicobacter pylori	microbial growth, broth dilution		1.95 µg/mL	inhibition	100%
Cc1cc(C)c(C#N)c(SC(C)C(=O)c2ccccc2)n1 (stereo not drawn)	Trypanosoma brucei	parasite growth, resazurin	RHODESIENSE		EC50	> 64 µM

Excerpt of the above:
SMILES	tested on	assay	system	conditions	measurement	result
CN(c1ccc(F)cc1)c1c(-c2ccccn2)nc2ccccn12	Leishmania infantum	parasite growth		intracellular, amastigote	IC50	1.49 µM and 0.57 µM
C=C[C@@]1(C)C=C2CC[C@@H]3[C@](C)(CCC[C@@]3(C)C(=O)O)[C@H]2CC1	Helicobacter pylori	microbial growth, broth dilution		7.81 µg/mL	inhibition	71%
COc1ccccc1C(=O)CSc1nc(C)cc(C)c1C#N	Leishmania infantum	parasite growth	mouse Macrophage	intracellular, amastigote	EC50	20.4 µM
